Experimental data collected from several papers.
Numbers after ± are the reported error.

SMILES = CNCCCN1c2ccccc2CCc2cc(O)ccc21; assay = reverse phase LC, C18; test system = acetonitrile gradient, 0.1% formic acid; conditions = converted from retention time; scale = baseline: Valko CHI standards; measurement = chromatographic hydrophobicity index; value = 49.9
SMILES = CN(C(=O)C(C)(C)c1cc(C(F)(F)F)cc(C(F)(F)F)c1)c1cnc(N2C[C@H]3COCCN3C[C@H]2CO)cc1-c1ccc(F)cc1[14CH3]; assay = item: total radioactivity; test system = human, male, whole blood; conditions = oral, 120 mg; measurement = last quantifiable time; value = 24 to 96 h
SMILES = CCOC(=O)N1C[C@@H](c2ccc(F)c(C#N)c2)N[C@@H](c2ccc(-c3ccccc3)cc2)C1; assay = shake-flask, 1-octanol/buffer; conditions = pH 7.4; measurement = logD; value = > 4.7
SMILES = CCn1cc(C(=O)N2CCOCC2)c(=O)c2cc(NC3Cc4ccccc4C3)cnc21; test system = human, fasted; conditions = oral tablet, 300 mg single dose, arithmetic mean; measurement = AUC(0-last); value = 11000 ng·h/mL
SMILES = O=C(Nc1nc2cccc(-c3ccc(CN4CCS(=O)(=O)CC4)cc3)n2n1)C1CC1; assay = item: cystitis; test system = human rheumatoid arthritis patients; conditions = oral, 30 mg once daily, 4 weeks, regardless of relatedness; measurement = treatment-emergent adverse events; value = 0%
SMILES = O=C1c2ccncc2C(=O)c2c1[nH]c1ccccc21; assay = no effect; test system = rat, normal; conditions = dose not given; measurement = systemic vascular hemodynamics; value = no effect
SMILES = CC(=O)N(C)C1CCN(c2cc(F)cc(NC(=O)c3cc4c(F)ccc(C)c4[nH]3)c2)C1 (centres unmarked); test system = CD1 mouse; conditions = oral, 50 mg/kg; measurement = MRT(0-inf); value = 2.9 h
SMILES = Cc1ccc(Nc2ncnc3ccc(-c4cccc(N5CCOCC5)c4)cc23)cc1; test system = human liver microsomes; measurement = CLint; value = 100 µL/min/mg
SMILES = Cc1ncc(CO)c(C(=O)O)c1O; test system = rat; measurement = renal clearance; value = 49.9 ± 20.2 mL/min/kg
SMILES = O=c1cc(-c2ccc(O)cc2)oc2c([C@@H]3OC[C@H](O)[C@H](O)[C@H]3O)c(O)c([C@@H]3O[C@H](CO)[C@@H](O)[C@H](O)[C@H]3O)c(O)c12; assay = UHPLC-MS/MS; test system = C57BL/6J mouse, heart; conditions = oral, dose not given; measurement = tissue concentration; value = 0.28 ng/g
SMILES = N#Cc1ccc2c(c1)[C@H]1CCCN(C(=O)c3ccc4[nH]cnc4c3)[C@H]1C2; test system = human; conditions = 40 mg, end of trial; scale = baseline: baseline; measurement = ACTH level change; value = 0.5 pmol/L
SMILES = Cc1cc(NC2CCN(C(=O)OC3CCN(C(=O)/C=C/CN(C)C)C3)CC2)n2ncc(C(C)C)c2n1 (centres unmarked); assay = Phase I dose escalation CTCAE v4.0, item: back pain; test system = patients with advanced solid tumours; conditions = dose not given, Total dosing grade 3 or higher; measurement = patients with adverse event; value = 0%
SMILES = CC[C@H](C)CCCCC(=O)N[C@@H](CCN)C(=O)N[C@H](C(=O)N[C@@H](CCN)C(=O)N[C@H]1CCNC(=O)[C@H]([C@@H](C)O)NC(=O)[C@H](CCN)NC(=O)[C@H](CCN)NC(=O)[C@H](CC(C)C)NC(=O)[C@@H](Cc2ccccc2)NC(=O)[C@H](CCN)NC1=O)[C@@H](C)O; test system = mild renal insufficiency patients, urine; conditions = IV, 0.75 mg/kg, 0-24 h, arithmetic mean; measurement = cumulative urinary excretion; value = 0.643 mg
SMILES = CCCC(=O)Nc1cc(C2CC2)[nH]n1; test system = octanol/buffer; conditions = 67 µM, pH 7.4; measurement = logD; value = 1.75
SMILES = CNC(=O)c1ccc(-c2cnc3ncc(Cc4ccc5ncccc5c4)n3n2)cc1F; test system = Japanese patients; conditions = oral, 400 mg twice daily, any grade; measurement = Photosensitivity patients; value = 0%
SMILES = CCc1cc(C(=O)NC)c2nccc(N3CCc4c(cc(Cn5ccnc5)cc4-c4cn(C)nc4C(F)(F)F)C3=O)c2c1; test system = Sprague Dawley rat; conditions = oral, 100 mg/kg once daily, day 4, 7-day toxicology study; scale = baseline: day 1; measurement = body weight change; value = 9.4%
SMILES = Cc1c(C(=O)O)ccc2c3n(nc12)[C@@H]1[C@H](C3)N(CC2CC2)[C@@]2(C(=O)Nc3cc(Cl)ccc32)[C@H]1c1cccc(Cl)c1F; assay = phase Ia trial, item: Dysgeusia; test system = cancer patients; conditions = oral, dose not given, all patients grade ≥3; measurement = adverse event incidence; value = 0%
SMILES = FC(F)(F)c1ccc(CNc2ccc(Cc3c[nH]c4ncc(Cl)cc34)cn2)cn1; assay = item: Dyspepsia; test system = patients with advanced solid tumours, non-TGCT cohort; conditions = oral, 1000 mg/day, any grade; measurement = treatment-related adverse events; value = 0%
SMILES = CCC(C(=O)O)C(=O)O; assay = binding, equilibrium dialysis LC-MS; conditions = 5 µM, thermostabilized A2AR-BRIL construct; scale = baseline: no-protein control, direction not given; measurement = z-scored log2 fold change; value = -0.195
SMILES = COc1cc(N2CCC3(CCN(C)CC3)CC2)ccc1Nc1ncc(Cl)c(Nc2ccccc2P(C)(C)=O)n1; assay = population PK model; test system = human; conditions = oral, bootstrap median; measurement = V1/F; value = 346 L
SMILES = Clc1cc(Cl)cc([C@H]2COC[C@H](C3CCCCC3)N2)c1; assay = shake-flask, 1-octanol/buffer; conditions = pH 7.4; measurement = logD; value = > 4.7
SMILES = CCn1c(=O)c(-c2cc(NC(=O)Nc3ccccc3)c(F)cc2Br)cc2cnc(NC)cc21; assay = LC-MS/MS; test system = human, plasma; conditions = oral, 150 mg once daily; measurement = trough concentration; value = 157 ng/mL
SMILES = [O]=[Co].[O]=[Co][O][Co]=[O]; test system = rat, male, urine, 24-h collection; conditions = oral gavage, single, 300 mg/kg (220 mg Co/kg), day 1, vehicle 0.5% HPMC; measurement = cobalt concentration; value = 6340 µg/L
SMILES = O=C(Cc1ccccc1[N+](=O)[O-])Nc1ccccc1C(=O)N1CCOCC1; test system = octanol/buffer; conditions = pH 7.4; measurement = logD; value = 1.24
SMILES = Cc1ccc([C@@H]2O[C@H](CO)[C@@H](O)[C@H](O)[C@H]2O)cc1Cc1ccc(-c2ccc(F)cc2)s1; test system = Japanese type 2 diabetes patients; conditions = 200 mg, day 3, 24 h urine collection; scale = baseline: baseline; measurement = urinary chloride excretion change; value = -0.67 mEq
SMILES = C[C@@H](O)[C@H](NC(=O)c1ccc(C#CC#Cc2ccccc2)cc1)C(=O)NO; test system = octanol/buffer; conditions = pH 7.4; measurement = logD; value = 4
SMILES = CC(C)c1nc(N(C)S(C)(=O)=O)nc(-c2ccc(F)cc2)c1/C=C/[C@@H](O)C[C@@H](O)CC(=O)O; test system = cynomolgus monkey, suspended hepatocytes; scale = unbound, scaled in vitro; measurement = passive intrinsic clearance; value = 2.4 mL/min/kg
SMILES = O=C(Cn1c(NCCO)nc2ccccc21)c1cccc([N+](=O)[O-])c1; test system = octanol/buffer; conditions = pH 7.4; measurement = logD; value = 1.75
SMILES = COc1cc2c(cc1OC)CN(CCc1ccc(NC(=O)c3cccc4c(=O)c5cccc(OC)c5[nH]c34)cc1)CC2; test system = Sprague Dawley rats, plasma; conditions = iv infusion, 0.009 mg/h/kg, 4 h; measurement = total plasma concentration; value = 1.6 ng/mL
SMILES = CC[C@H](C)[C@H](NC(=O)[C@H](Cc1ccccc1)NC(=O)[C@H](CCC(=O)O)NC(=O)[C@H](CCCCNC(=O)COCCOCCNC(=O)COCCOCCNC(=O)CC[C@H](NC(=O)CCCCCCCCCCCCCCCCC(=O)O)C(=O)O)NC(=O)[C@H](C)NC(=O)[C@H](C)NC(=O)[C@H](CCC(N)=O)NC(=O)CNC(=O)[C@H](CCC(=O)O)NC(=O)[C@H](CC(C)C)NC(=O)[C@H](Cc1ccc(O)cc1)NC(=O)[C@H](CO)NC(=O)[C@H](CO)NC(=O)[C@@H](NC(=O)[C@H](CC(=O)O)NC(=O)[C@H](CO)NC(=O)[C@@H](NC(=O)[C@H](Cc1ccccc1)NC(=O)[C@@H](NC(=O)CNC(=O)[C@H](CCC(=O)O)NC(=O)C(C)(C)NC(=O)[C@@H](N)Cc1cnc[nH]1)[C@@H](C)O)[C@@H](C)O)C(C)C)C(=O)N[C@@H](C)C(=O)N[C@@H](Cc1c[nH]c2ccccc12)C(=O)N[C@@H](CC(C)C)C(=O)N[C@H](C(=O)N[C@@H](CCCNC(=N)N)C(=O)NCC(=O)N[C@@H](CCCNC(=N)N)C(=O)NCC(=O)O)C(C)C; assay = 12-lead Holter ECG; test system = healthy humans; conditions = subcutaneous, 1.5 mg once weekly, 42 h, steady state; scale = baseline: placebo; measurement = QTcF change from baseline; value = -2.5 ms
SMILES = C=CC(=O)NC1CCN(c2ncc3ncnc(Nc4ccc(Oc5ccc6c(c5)ncn6C)c(C)c4)c3n2)CC1; test system = healthy male volunteers, plasma; conditions = oral solution, 60 mg; scale = baseline: compound over total radioactivity; measurement = AUC0-inf ratio; value = 0.465
SMILES = O=[N+]([O-])c1cc2c3ccccc3ccc2c2ccccc12; assay = item: adenocarcinoma mammary tumours; test system = female Sprague-Dawley rats; conditions = intramammary, 12.3 µmol per rat, up to 32 weeks; measurement = tumours per rat; value = 1.39 ± 1.2
SMILES = C[C@@H](c1ncncc1F)[C@](O)(Cn1cncn1)c1ccc(F)cc1F; test system = human; conditions = oral, 400 mg, drug interaction trial; measurement = grade 2 TEAE; value = 0%
SMILES = CO[C@@H]1[C@H](O)[C@@H](CO)O[C@H]1n1c([N+](=O)[O-])nc2c(=O)[nH]c(N)nc21; assay = depurination, RP-HPLC; test system = citrate-phosphate buffer 0.5 mM; conditions = 77 min, pH 2, 37 °C; measurement = nucleoside remaining fraction; value = 0.931
SMILES = O=C(O)CN1CCCN2CCN(Cc3ccccc3)CCCN(CC1)Cc1cccc(n1)C2; test system = 64Cu complex; conditions = 2 h, pH 7.4, 37 °C, together with: DOTA excess; measurement = intact complex; value = 99%
SMILES = CCO; test system = human; conditions = treatment-emergent adverse event; measurement = flushing; value = 61.1%
SMILES = Cc1cc(-c2nccc3c2ccn3CC(=O)Nc2ccc(-c3cnccn3)cn2)ccn1; test system = human; conditions = 15 mg once daily, multiple ascending dose; measurement = subjects with breath odour; value = 11.1%
SMILES = O=C(COc1ccc(Cl)cc1)NC12CC(c3nnc([C@H]4C[C@@H](OC(F)(F)F)C4)o3)(C1)C2; assay = item: Myalgia; test system = human; conditions = oral, 260 mg once daily, 14 days; measurement = adverse event incidence; value = 14.3%
SMILES = CC#CC(=O)N1CCC[C@H]1c1nc(-c2ccc(C(=O)Nc3ccccn3)cc2)c2c(N)nccn12; test system = PBS; conditions = 100 µM, 23 h, pH 7.45, 37 °C, together with: GSH 5 mM; measurement = GSH adduct formation; value = 95%
SMILES = Cc1cc2nc3c(=O)[nH]c(=O)nc-3n(C[C@H](O)[C@H](O)[C@H](O)COP(=O)(O)OP(=O)(O)OC[C@H]3O[C@@H](n4cnc5c(N)ncnc54)[C@H](O)[C@@H]3O)c2cc1C; assay = binding, equilibrium dialysis LC-MS; conditions = 5 µM, thermostabilized A2AR-BRIL construct; scale = baseline: no-protein control, direction not given; measurement = z-scored log2 fold change; value = -0.0754
SMILES = C[C@@H](N)C1CCN(S(=O)(=O)c2cccc3cnccc23)CC1; assay = item: Bradycardia; test system = healthy volunteers; conditions = 25 mg, fasted; measurement = TEAE incidence; value = 0%
SMILES = CCOC(=O)N1C[C@@H](c2cccnc2)N[C@@H](c2ccc(C(C)(C)C)cc2)C1; assay = shake-flask, 1-octanol/buffer; conditions = pH 7.4; measurement = logD; value = > 4.7
SMILES = CC(=O)N[C@H]1CC[C@H](NC(=O)CN2CCN(c3nncc(-c4ccc(C)cc4)n3)CC2)CC1; test system = healthy human, plasma; conditions = oral, 100 mg single dose; scale = baseline: female over male; measurement = AUC0-∞ ratio; value = 1.2
SMILES = CCN1/C(=C/C(C)=O)Sc2ccc(F)cc21; test system = cynomolgus monkey; conditions = oral, 100 mg/kg, 2 h post-dose; scale = baseline: pre-dose; measurement = diastolic blood pressure change; value = 96.1 ± 3.3%
SMILES = CC[C@H](C)C(=O)O[C@H]1C[C@@H](C)C=C2C=C[C@H](C)[C@H](CC[C@@H]3C[C@@H](O)CC(=O)O3)[C@H]21; test system = EpiIntestinal microtissues; conditions = 10 µM, pH 6.5; measurement = CLint; value = 3.44 µL/min/mg
SMILES = O=C(N[C@H](Cc1c[nH]c2ccccc12)C(=O)Nc1ccncc1)c1ccc(-c2ccc(F)c(C(F)(F)F)c2)cc1F; test system = Swiss Webster mouse, female, fat; conditions = oral, 50 mg/kg, 8 h, 20% HPβCD vehicle; measurement = concentration; value = 2820 nM
SMILES = FC(F)(F)c1ccc([C@@H]2COC[C@H](c3cnc(-c4ccccc4)nc3)N2)cc1; assay = shake-flask, 1-octanol/buffer; conditions = pH 7.4; measurement = logD; value = > 4.7

Some of these lines once more:
SMILES = CNCCCN1c2ccccc2CCc2cc(O)ccc21; assay = reverse phase LC, C18; test system = acetonitrile gradient, 0.1% formic acid; conditions = converted from retention time; scale = baseline: Valko CHI standards; measurement = chromatographic hydrophobicity index; value = 49.9
SMILES = Cc1ccc(Nc2ncnc3ccc(-c4cccc(N5CCOCC5)c4)cc23)cc1; test system = human liver microsomes; measurement = CLint; value = 100 µL/min/mg
